Measured values gathered from unrelated publications.
Lines come from different studies, so protocols differ.

Compound	cell line	observed	method	time	CC50
COc1ccc2c(O[C@@H]3C[C@H]4C(=O)N[C@]5(C(=O)NS(=O)(=O)C6CC6)C[C@H]5/C=C\CCCCN(C)C(=O)[C@@H]4C3)cc(-c3nc(C(C)C)cs3)nc2c1C	HEK293T	cell viability	MTT	48 (unit not given)	> 50 µM
Nc1nc(CC(O)c2ccc(Cl)cc2)c(Br)c(=O)[nH]1 (centres unmarked)	CRFK	cytotoxicity	MTS	–	> 100 µM
CC[C@H](C)[C@H](NC(=O)[C@H](CCCCN)NC(=O)[C@H](CCCNC(=N)N)NC(=O)[C@H](CCC(N)=O)NC(=O)[C@H](CCCNC(=N)N)NC(=O)CNC(=O)[C@H](Cc1ccccc1)NC(=O)[C@H](CCCNC(=N)N)NC(=O)[C@H](CCCNC(=N)N)NC(=O)[C@H](Cc1ccccc1)NC(=O)[C@H](CC(C)C)NC(=O)[C@@H]1CCCN1C(=O)[C@@H](NC(=O)[C@H](CC(N)=O)NC(=O)[C@@H](NC(=O)[C@@H](NC(=O)[C@H](CO)NC(=O)[C@H](CC(N)=O)NC(=O)[C@H](CCCNC(=N)N)NC(=O)[C@@H]1CCCN1C(=O)[C@@H](NC(=O)[C@@H]1CCCN1C(=O)[C@@H](N)Cc1ccccc1)[C@@H](C)CC)[C@@H](C)O)C(C)C)[C@@H](C)CC)C(=O)NCC(=O)NCC(=O)N[C@@H](CCCNC(=N)N)C(=O)NCC(=O)N[C@@H](CCCNC(=N)N)C(=O)N[C@H](C(=O)N[C@H](C(=O)N[C@@H](CO)C(=O)N1CCC[C@H]1C(=O)N[C@@H](Cc1ccc(O)cc1)C(=O)N[C@@H](CCCNC(=N)N)C(=O)N[C@H](C(=O)N1CCC[C@H]1C(=O)N[C@H](C(=O)N[C@@H](CC(C)C)C(=O)N[C@@H](CCCNC(=N)N)C(=O)N[C@@H](CCCNC(=N)N)C(=O)N[C@@H](Cc1c[nH]cn1)C(=O)N[C@@H](CCCNC(=N)N)C(=O)N[C@@H](Cc1ccc(O)cc1)C(=O)N[C@@H](CO)C(=O)N[C@H](C(=O)N[C@@H](Cc1ccccc1)C(=O)N[C@@H](CCCNC(=N)N)C(=O)O)[C@@H](C)CC)C(C)C)[C@@H](C)O)[C@@H](C)CC)[C@@H](C)CC	HaCaT	cell viability	MTT	–	47.3 µM
C=C(C)[C@@]12C[C@@H](COC(=O)c3ccccc3)[C@@]34OC5(O[C@@H]1[C@@H]3[C@@H]1O[C@]1(CO)[C@@H](O)[C@@]1(O)[C@H]4[C@H]([C@H](C)[C@@H]1OC(=O)c1ccccc1)[C@H](C)CCCCCC[C@H]5O)O2	MT-4	cytotoxicity	–	–	> 1.29 µM
COc1ccc(/C=C/c2nc(N)[nH]c(=O)c2Br)cc1OC	CRFK	cytotoxicity	MTS	–	> 100 µM
CC[C@H](C)[C@H](N)C(=O)N[C@H](C(=O)N[C@@H](C)C(=O)N[C@H](C(=O)N[C@H](C(=O)N[C@@H](CCCNC(=N)N)C(=O)N[C@@H](Cc1ccccc1)C(=O)N[C@@H](CO)C(=O)N[C@@H](CCCNC(=N)N)C(=O)N[C@@H](CCCNC(=N)N)C(=O)N[C@@H](CCCCN)C(=O)N[C@H](C(=O)N1CCC[C@H]1C(=O)N[C@@H](Cc1c[nH]c2ccccc12)C(=O)N[C@@H](CCC(N)=O)C(=O)N[C@@H](CCC(N)=O)C(=O)N[C@@H](CC(N)=O)C(=O)N[C@@H](Cc1ccccc1)C(=O)N[C@H](C(=O)N[C@@H](CC(N)=O)C(=O)N[C@@H](CC(N)=O)C(=O)N[C@@H](Cc1c[nH]cn1)C(=O)N[C@@H](CC(N)=O)C(=O)N1CCC[C@H]1C(=O)N[C@@H](CCCCN)C(=O)NCC(=O)N[C@@H](CCCNC(=N)N)C(=O)N[C@@H](CC(C)C)C(=O)N[C@@H](CCCNC(=N)N)C(=O)N[C@@H](CC(N)=O)C(=O)N[C@@H](CCC(N)=O)C(=O)N[C@@H](Cc1c[nH]cn1)C(=O)N[C@@H](CCCCN)C(=O)N[C@H](C(=O)N[C@@H](CO)C(=O)N[C@@H](CC(C)C)C(=O)N[C@@H](CCC(N)=O)C(=O)N[C@@H](CCCCN)C(=O)N[C@@H](CO)C(=O)N[C@H](C(=O)N[C@@H](C)C(=O)N[C@H](C(=O)N[C@@H](CCSC)C(=O)N[C@@H](CC(C)C)C(=O)N1CCC[C@H]1C(=O)N[C@@H](CCCCN)C(=O)O)C(C)C)[C@@H](C)O)C(C)C)C(C)C)[C@@H](C)CC)[C@@H](C)O)[C@@H](C)CC)[C@@H](C)CC	HaCaT	cell viability	MTT	24 h	47.4 µM
CN[C@@H]1C[C@H]2O[C@@](C)([C@@H]1OC)n1c3ccccc3c3c4c(c5c6ccccc6n2c5c31)C(=O)NC4	HEK293	cytotoxicity	MTT	24 h	3 ng/mL
CC(=O)O[C@H]1C[C@H](O[C@H]2[C@@H](O)C[C@H](O[C@H]3[C@@H](O)C[C@H](O[C@H]4CC[C@@]5(C)[C@H](CC[C@@H]6[C@@H]5C[C@@H](O)[C@]5(C)[C@@H](C7=CC(=O)OC7)CC[C@]65O)C4)O[C@@H]3C)O[C@@H]2C)O[C@H](C)[C@H]1O[C@@H]1O[C@H](CO)[C@@H](O)[C@H](O)[C@H]1O	primary human keratinocytes uninfected	–	live/dead staining	20 h	0.33 µM
CC(C)(C)[C@@H]1NC(=O)O[C@@H]2CCC[C@H]2OC/C=C/C(F)(F)c2nc3ccccc3nc2O[C@@H]2C[C@@H](C(=O)N[C@]3(C(=O)NS(=O)(=O)C4(C)CC4)C[C@H]3C(F)F)N(C2)C1=O	HEK293T	cell viability	MTT	48 (unit not given)	> 50 µM
CC[C@H](C)[C@H](NC(=O)[C@H](CCC(N)=O)NC(=O)[C@H](CCCCN)NC(=O)[C@H](CCSC)NC(=O)[C@H](CO)NC(=O)[C@H](CCC(=O)O)NC(=O)[C@H](CCC(N)=O)NC(=O)[C@@H]1CCCN1C(=O)[C@H](CS)NC(=O)[C@@H](NC(=O)[C@H](CCCCN)NC(=O)[C@@H](NC(=O)CNC(=O)[C@@H](NC(=O)[C@@H]1CCCN1C(=O)[C@H](Cc1ccccc1)NC(=O)[C@H](Cc1ccccc1)NC(=O)[C@H](C)NC(=O)[C@H](CO)NC(=O)[C@H](CCCNC(=N)N)NC(=O)[C@H](CCCCN)NC(=O)[C@@H](NC(=O)[C@H](CCCNC(=N)N)NC(=O)[C@H](Cc1c[nH]cn1)NC(=O)[C@H](CCCCN)NC(=O)[C@H](C)NC(=O)[C@H](CC(C)C)NC(=O)[C@H](CC(=O)O)NC(=O)[C@H](Cc1ccccc1)NC(=O)[C@@H](NC(=O)[C@H](CCCNC(=N)N)NC(=O)[C@H](CCCNC(=N)N)NC(=O)[C@H](CCSC)NC(=O)[C@@H](NC(=O)[C@H](CO)NC(=O)[C@H](CCSC)NC(=O)[C@H](CCCCN)NC(=O)[C@H](Cc1ccc(O)cc1)NC(=O)[C@H](CCSC)NC(=O)[C@@H](N)CCCCN)[C@@H](C)O)[C@@H](C)CC)[C@@H](C)O)[C@@H](C)O)C(C)C)C(C)C)C(=O)N[C@@H](CC(C)C)C(=O)O	HaCaT	cell viability	MTT	–	48.7 µM
Nc1nc(CC(O)c2ccccc2C(F)(F)F)c(Br)c(=O)[nH]1 (centres unmarked)	CRFK	cytotoxicity	MTS	–	> 100 µM
C=C[C@@H]1C[C@]1(NC(=O)[C@@H]1C[C@@H]2CN1C(=O)[C@H](C(C)(C)C)NC(=O)O[C@@H]1C[C@H]1CCCCCc1nc3ccc(OC)cc3nc1O2)C(=O)NS(=O)(=O)C1CC1	HEK293T	cell viability	MTT	–	> 50 µM
CC[C@H](C)[C@H](NC(=O)[C@H](CCCCN)NC(=O)[C@H](CCC(N)=O)NC(=O)[C@H](CCSC)NC(=O)[C@H](CCC(N)=O)NC(=O)[C@H](CC(C)C)NC(=O)[C@H](CCC(N)=O)NC(=O)[C@H](CO)NC(=O)[C@H](CCCCN)NC(=O)CNC(=O)[C@H](C)NC(=O)[C@@H](N)CC(C)C)C(=O)N[C@@H](Cc1ccccc1)C(=O)N[C@@H](CCCCN)C(=O)N[C@@H](CCCCN)C(=O)N[C@@H](CC(C)C)C(=O)N1CCC[C@H]1C(=O)NCC(=O)N[C@@H](Cc1ccccc1)C(=O)N[C@@H](CCCCN)C(=O)N[C@@H](CCCCN)C(=O)N[C@H](C(=O)N[C@@H](Cc1c[nH]cn1)C(=O)N[C@H](C(=O)N[C@@H](CC(C)C)C(=O)NCC(=O)N[C@@H](Cc1ccccc1)C(=O)N[C@@H](CCCNC(=N)N)C(=O)N1CCC[C@H]1C(=O)N[C@@H](CCCCN)C(=O)N[C@@H](CCCCN)C(=O)O)C(C)C)[C@@H](C)CC	HaCaT	cell viability	MTT	–	47.4 µM
CCCc1nc(N)[nH]c(=O)c1Br	CRFK	cytotoxicity	MTS	–	> 100 µM
